Assay results from different studies.
Compare with care: the assays were run in different laboratories. Several values in a cell are separate wells, animals, samples, runs or records. Numbers after ± are the reported error.
UniProt Q8LBL5, sequence (whole entry, looked up): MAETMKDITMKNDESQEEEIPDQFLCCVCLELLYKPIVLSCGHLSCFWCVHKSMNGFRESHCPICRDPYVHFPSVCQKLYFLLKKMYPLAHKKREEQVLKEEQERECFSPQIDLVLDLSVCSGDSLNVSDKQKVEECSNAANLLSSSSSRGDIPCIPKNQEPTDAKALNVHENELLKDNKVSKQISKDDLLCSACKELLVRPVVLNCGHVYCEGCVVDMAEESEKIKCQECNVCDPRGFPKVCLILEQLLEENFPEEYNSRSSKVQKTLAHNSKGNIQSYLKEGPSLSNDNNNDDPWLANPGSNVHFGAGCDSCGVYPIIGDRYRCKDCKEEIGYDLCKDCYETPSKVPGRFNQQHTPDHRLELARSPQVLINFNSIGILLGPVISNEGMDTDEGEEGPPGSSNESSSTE
UniProt P21553, sequence (whole entry, looked up): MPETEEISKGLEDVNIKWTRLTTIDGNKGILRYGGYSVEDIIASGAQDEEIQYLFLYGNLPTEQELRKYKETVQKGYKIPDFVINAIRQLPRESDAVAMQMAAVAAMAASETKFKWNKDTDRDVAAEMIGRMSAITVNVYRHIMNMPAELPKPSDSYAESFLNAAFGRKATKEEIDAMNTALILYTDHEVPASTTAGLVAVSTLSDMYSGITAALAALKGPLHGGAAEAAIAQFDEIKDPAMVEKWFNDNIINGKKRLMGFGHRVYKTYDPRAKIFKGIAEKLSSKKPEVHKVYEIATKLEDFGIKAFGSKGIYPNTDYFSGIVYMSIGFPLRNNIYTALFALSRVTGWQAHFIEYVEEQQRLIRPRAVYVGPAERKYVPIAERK
UniProt Q9EP73, sequence (whole entry, looked up): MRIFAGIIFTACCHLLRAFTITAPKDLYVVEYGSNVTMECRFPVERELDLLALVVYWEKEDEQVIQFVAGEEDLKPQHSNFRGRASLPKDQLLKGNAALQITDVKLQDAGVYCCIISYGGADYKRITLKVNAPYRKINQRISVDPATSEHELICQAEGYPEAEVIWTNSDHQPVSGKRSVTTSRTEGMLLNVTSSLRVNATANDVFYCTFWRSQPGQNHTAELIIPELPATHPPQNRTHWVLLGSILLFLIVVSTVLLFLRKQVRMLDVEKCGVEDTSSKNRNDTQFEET
UniProt P16885, sequence (whole entry, looked up): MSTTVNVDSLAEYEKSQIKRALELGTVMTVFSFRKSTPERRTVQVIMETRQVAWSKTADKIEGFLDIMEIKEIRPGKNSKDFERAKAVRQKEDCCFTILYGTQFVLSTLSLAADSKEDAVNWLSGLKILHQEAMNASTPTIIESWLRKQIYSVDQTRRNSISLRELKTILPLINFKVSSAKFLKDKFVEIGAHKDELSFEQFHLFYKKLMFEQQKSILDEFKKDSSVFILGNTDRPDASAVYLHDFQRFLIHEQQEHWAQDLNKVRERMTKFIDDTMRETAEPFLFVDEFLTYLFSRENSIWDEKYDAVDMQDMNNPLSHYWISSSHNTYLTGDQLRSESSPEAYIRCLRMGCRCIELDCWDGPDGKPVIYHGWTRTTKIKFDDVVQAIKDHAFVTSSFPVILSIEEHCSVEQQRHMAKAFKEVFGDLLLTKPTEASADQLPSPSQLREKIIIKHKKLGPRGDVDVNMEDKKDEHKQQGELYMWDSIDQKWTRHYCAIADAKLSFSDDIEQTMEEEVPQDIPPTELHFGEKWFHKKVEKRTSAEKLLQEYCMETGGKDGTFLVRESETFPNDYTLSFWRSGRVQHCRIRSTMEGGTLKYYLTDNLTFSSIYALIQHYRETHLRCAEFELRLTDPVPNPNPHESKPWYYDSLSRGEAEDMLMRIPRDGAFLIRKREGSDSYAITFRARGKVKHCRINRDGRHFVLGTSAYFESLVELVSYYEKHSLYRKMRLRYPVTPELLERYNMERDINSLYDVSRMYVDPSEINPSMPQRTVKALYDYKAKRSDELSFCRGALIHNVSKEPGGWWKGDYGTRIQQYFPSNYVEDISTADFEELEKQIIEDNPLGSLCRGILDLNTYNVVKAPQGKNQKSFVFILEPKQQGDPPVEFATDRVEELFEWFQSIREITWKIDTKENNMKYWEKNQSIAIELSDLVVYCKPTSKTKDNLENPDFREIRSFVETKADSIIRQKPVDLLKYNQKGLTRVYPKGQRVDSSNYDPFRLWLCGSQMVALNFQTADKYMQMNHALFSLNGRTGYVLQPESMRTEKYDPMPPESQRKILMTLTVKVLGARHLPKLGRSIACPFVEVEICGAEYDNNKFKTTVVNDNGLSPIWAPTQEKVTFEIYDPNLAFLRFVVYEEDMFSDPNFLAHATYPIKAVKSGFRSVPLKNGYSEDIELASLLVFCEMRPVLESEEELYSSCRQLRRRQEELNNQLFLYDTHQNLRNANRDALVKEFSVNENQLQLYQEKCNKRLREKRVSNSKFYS
UniProt P03023, sequence (whole entry, unmodified, looked up): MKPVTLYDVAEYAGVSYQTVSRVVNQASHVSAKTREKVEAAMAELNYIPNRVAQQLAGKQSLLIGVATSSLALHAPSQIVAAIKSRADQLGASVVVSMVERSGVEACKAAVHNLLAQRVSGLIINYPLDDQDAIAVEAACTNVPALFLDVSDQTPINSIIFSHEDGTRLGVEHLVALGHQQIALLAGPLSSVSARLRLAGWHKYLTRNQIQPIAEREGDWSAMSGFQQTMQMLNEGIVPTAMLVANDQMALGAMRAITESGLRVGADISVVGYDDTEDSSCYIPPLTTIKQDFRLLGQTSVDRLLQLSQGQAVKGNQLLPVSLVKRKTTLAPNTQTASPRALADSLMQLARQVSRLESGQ
UniProt P12004, sequence (whole entry, looked up): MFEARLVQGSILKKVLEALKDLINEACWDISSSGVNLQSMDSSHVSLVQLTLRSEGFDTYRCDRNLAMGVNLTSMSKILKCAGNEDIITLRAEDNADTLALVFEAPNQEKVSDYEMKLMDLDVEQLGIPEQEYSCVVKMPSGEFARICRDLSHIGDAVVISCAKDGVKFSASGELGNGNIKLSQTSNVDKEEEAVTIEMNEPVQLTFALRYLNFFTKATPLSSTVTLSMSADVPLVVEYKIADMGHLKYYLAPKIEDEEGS
UniProt P51451, sequence (whole entry, looked up): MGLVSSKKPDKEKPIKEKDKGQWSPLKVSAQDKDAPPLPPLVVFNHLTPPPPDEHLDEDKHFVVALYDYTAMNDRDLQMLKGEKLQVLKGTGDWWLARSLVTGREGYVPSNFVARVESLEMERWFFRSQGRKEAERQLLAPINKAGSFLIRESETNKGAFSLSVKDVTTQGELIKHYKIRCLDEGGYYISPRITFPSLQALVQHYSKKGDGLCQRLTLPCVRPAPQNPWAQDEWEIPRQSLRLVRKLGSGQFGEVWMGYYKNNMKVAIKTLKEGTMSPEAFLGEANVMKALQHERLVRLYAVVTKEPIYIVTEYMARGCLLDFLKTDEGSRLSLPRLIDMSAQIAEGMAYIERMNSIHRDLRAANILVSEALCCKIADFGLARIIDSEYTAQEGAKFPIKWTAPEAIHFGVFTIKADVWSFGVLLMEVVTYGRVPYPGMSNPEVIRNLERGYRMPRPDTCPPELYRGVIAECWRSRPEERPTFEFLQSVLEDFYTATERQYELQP
UniProt Q8N5H7, sequence (whole entry, looked up): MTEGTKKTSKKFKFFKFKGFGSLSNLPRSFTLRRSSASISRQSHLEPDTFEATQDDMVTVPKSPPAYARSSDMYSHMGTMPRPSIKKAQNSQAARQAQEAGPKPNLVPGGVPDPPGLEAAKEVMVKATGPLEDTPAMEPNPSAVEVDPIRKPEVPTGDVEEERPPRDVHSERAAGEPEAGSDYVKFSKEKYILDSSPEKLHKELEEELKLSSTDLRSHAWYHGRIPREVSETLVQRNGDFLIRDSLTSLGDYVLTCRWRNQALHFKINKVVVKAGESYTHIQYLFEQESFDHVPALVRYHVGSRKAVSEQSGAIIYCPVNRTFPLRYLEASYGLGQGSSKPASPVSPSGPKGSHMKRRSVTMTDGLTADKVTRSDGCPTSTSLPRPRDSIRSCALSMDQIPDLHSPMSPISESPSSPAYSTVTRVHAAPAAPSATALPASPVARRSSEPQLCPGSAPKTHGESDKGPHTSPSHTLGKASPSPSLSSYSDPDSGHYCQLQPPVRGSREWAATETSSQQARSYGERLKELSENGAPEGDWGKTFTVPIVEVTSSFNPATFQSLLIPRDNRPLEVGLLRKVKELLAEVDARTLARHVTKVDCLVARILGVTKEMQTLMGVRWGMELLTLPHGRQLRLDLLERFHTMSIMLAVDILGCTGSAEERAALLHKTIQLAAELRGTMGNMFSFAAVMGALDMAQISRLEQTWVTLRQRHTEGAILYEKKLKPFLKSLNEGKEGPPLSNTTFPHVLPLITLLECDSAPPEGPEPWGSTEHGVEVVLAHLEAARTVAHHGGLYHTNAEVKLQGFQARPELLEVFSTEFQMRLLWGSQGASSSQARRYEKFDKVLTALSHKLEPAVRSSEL

SMILES | target | assay | setting | Kd
CN(CC(=O)O)C(=N)NP(=O)(O)O | CKMT1A (Homo sapiens, UniProt P12532, H99A) | microscale thermophoresis | pH 7.0, H61A mutant, no substrate | 328 ± 201 µM
Nc1ncnc2c1ncn2[C@@H]1O[C@H](COP(=O)(O)OP(=O)(O)NP(=O)(O)O)[C@@H](O)[C@H]1O | Inactive tyrosine-protein kinase PRAG1 (PRAG1, Homo sapiens, UniProt Q86YV5) | binding, SPR | – | 1.5 µM
CC[C@H](C)[C@H](NC(=O)[C@H](Cc1ccc(OP(=O)(O)O)cc1)NC(=O)[C@H](CCC(=O)O)NC(=O)[C@H](Cc1c[nH]cn1)NC(=O)CNC(=O)[C@H](CC(=O)O)NC(=O)[C@H](CO)NC(=O)[C@H](CO)NC(=O)[C@@H](NC(=O)[C@H](CO)NC(=O)[C@H](CCC(=O)O)NC(=O)c1ccc2c(c1)C(=O)OC21c2ccc(N(C)C)cc2Oc2cc(N(C)C)ccc21)C(C)C)C(=O)N[C@@H](Cc1ccc(O)cc1)C(=O)N[C@H](C(=O)N[C@@H](CC(=O)O)C(=O)N1CCC[C@H]1C(=O)N[C@@H](CCSC)C(=O)N[C@@H](CCC(N)=O)C(=O)N[C@@H](CC(=O)O)C(=O)O)C(C)C | Phosphatidylinositol 3-kinase regulatory subunit gamma, SH2 domain (Homo sapiens, UniProt Q92569) | binding | – | 1.03 µM
CC(=O)CCCNC(=O)CCNC(=O)[C@H](O)C(C)(C)COP(=O)(O)OP(=O)(O)OC[C@H]1O[C@@H](n2cnc3c(N)ncnc32)[C@H](O)[C@@H]1OP(=O)(O)O | gltA, with oxaloacetate (Thermoplasma acidophilum, UniProt P21553) | binding, CD titration | pH 8, 20 °C | 1.64 µM and 1.6 µM
CSCC[C@H](NC(=O)[C@H](CC(=O)O)NC(=O)c1ccc2c(c1)C(=O)OC21c2ccc(N(C)C)cc2Oc2cc(N(C)C)ccc21)C(=O)N[C@@H](CO)C(=O)N[C@@H](CCCCN)C(=O)N[C@@H](CC(=O)O)C(=O)N[C@@H](CCC(=O)O)C(=O)N[C@@H](CO)C(=O)N[C@H](C(=O)N[C@@H](CC(=O)O)C(=O)N[C@@H](Cc1ccc(OP(=O)(O)O)cc1)C(=O)N[C@H](C(=O)N1CCC[C@H]1C(=O)N[C@@H](CCSC)C(=O)N[C@@H](CC(C)C)C(=O)N[C@@H](CC(=O)O)C(=O)N[C@@H](CCSC)C(=O)N[C@@H](CCCCN)C(=O)N[C@@H](CC(=O)O)C(=O)O)C(C)C)C(C)C | SH2 domain-containing protein 3C, SH2 domain (SH2D3C, Homo sapiens, UniProt Q8N5H7) | binding | – | 0.6 µM
CSCC[C@H](NC(=O)[C@H](CCCCN)NC(=O)[C@H](CCCNC(=N)N)NC(=O)[C@H](CCC(N)=O)NC(=O)[C@H](CCCNC(=N)N)NC(=O)[C@H](CCCNC(=N)N)NC(=O)[C@@H](N)CCCCN)C(=O)N[C@@H](CCC(=O)O)C(=O)N[C@@H](CC(=O)O)C(=O)N[C@@H](Cc1ccc(O)cc1)C(=O)N[C@@H](Cc1ccc(O)cc1)C(=O)N[C@@H](Cc1c[nH]cn1)C(=O)N[C@@H](CO)C(=O)N[C@@H](CCCCN)C(=O)N[C@@H](CCCNC(=N)N)C(N)=O | PCNA (Homo sapiens, UniProt P12004) | binding | pH 7.4 | 0.00815 µM
O=C(O)C(F)(F)C(F)(F)C(F)(F)C(F)(F)C(F)(F)C(F)(F)C(F)(F)F | Albumin (ALB, Homo sapiens, UniProt P02768) | isothermal titration calorimetry | 25 °C, high-affinity site, two-site model | 0.107 µM
C[C@H](NC(=O)[C@H](C)NC(=O)[C@@H](N)Cc1ccc(O)cc1)C(=O)O | E3 ubiquitin-protein ligase PRT1 (PRT1, Arabidopsis thaliana, UniProt Q8LBL5) | ITC | pH 7.5, 25 °C | 23.3 ± 0.958 µM
Nc1ncnc2c1ncn2[C@@H]1O[C@H](COP(=O)(O)OP(=O)(O)OP(=O)(O)O)[C@@H](O)[C@H]1O | matB (Rhodopseudomonas palustris, UniProt Q6ND88, C106A/K488A/Q457C/R286C) | binding | pH 8.0, 100 mM NaCl | 4.6 ± 0.2 µM
COc1cc2c3c(n(CCCNCCO)c(=O)c2cc1OC)-c1cc2c(cc1C3=O)OCO2 | MYC G-quadruplex DNA | binding, fluorescence | pH 7.0, 20 °C, with: K+ 100 mM | 0.011 µM
N[C@@H](CO)C(=O)O | spt (Sphingomonas paucimobilis, UniProt Q93UV0, R378A) | binding | – | 1340 µM
C[C@H](NC(=O)[C@@H](N)Cc1ccc(O)cc1)C(=O)N[C@@H](Cc1ccccc1)C(=O)O | E3 ubiquitin-protein ligase PRT1, ZZ domain (PRT1, Arabidopsis thaliana, UniProt Q8LBL5) | binding, ITC | pH 7.5, ZZ domain | 10.1 ± 0.851 µM
CSCC[C@H](NC(=O)[C@H](Cc1ccc(OP(=O)(O)O)cc1)NC(=O)CNC(=O)CNC(=O)[C@H](CC(=O)O)NC(=O)[C@H](CO)NC(=O)[C@H](CCC(=O)O)NC(=O)CNC(=O)[C@@H](NC(=O)[C@H](CC(C)C)NC(=O)[C@H](CO)NC(=O)c1ccc2c(c1)C(=O)OC21c2ccc(N(C)C)cc2Oc2cc(N(C)C)ccc21)[C@@H](C)O)C(=O)N[C@@H](CC(=O)O)C(=O)N[C@@H](CCSC)C(=O)N[C@@H](CO)C(=O)N[C@@H](CCCCN)C(=O)N[C@@H](CC(=O)O)C(=O)N[C@@H](CCC(=O)O)C(=O)N[C@@H](CC(=O)O)C(=O)O | Tyrosine-protein kinase Blk, SH2 domain (BLK, Homo sapiens, UniProt P51451) | binding | – | 0.614 µM
C/C1=C\[C@H](C)C[C@H](C)OC(=O)C[C@H](c2ccc(O)cc2)NC(=O)[C@@H](Cc2c(Br)[nH]c3ccccc23)N(C)C(=O)[C@H](C)NC(=O)[C@@H](C)C1 | ACTC1/TPM1 (Bos taurus, UniProt Q3ZC07+Q5KR49) | binding, isothermal titration calorimetry | – | 0.00264 µM
CC[C@@H](C)[C@@H](NC(=O)[C@@H](Cc1ccc(O)cc1)NC(=O)[C@H]1CCCN1C(=O)[C@@H](CCCNC(=N)N)NC(=O)[C@H](N)Cc1c[nH]cn1)C(=O)N[C@H](C)C(=O)N[C@H](Cc1c[nH]cn1)C(=O)N[C@H](CCCNC(=N)N)C(=O)N[C@H](CCCCNC(=O)c1cccc(S(=O)(=O)F)c1)C(=O)N[C@H](Cc1ccc(O)cc1)C(=O)N[C@H](CO)C(=O)N[C@H](Cc1ccccc1)C(N)=O | Cd274 (Mus musculus, UniProt Q9EP73) | microscale thermophoresis | 2 h, His-tagged protein | 1.3 ± 0.3 µM
CC[C@H](C)[C@H](NC(=O)[C@H](Cc1ccc(OP(=O)(O)O)cc1)NC(=O)[C@H](CCC(=O)O)NC(=O)[C@@H]1CCCN1C(=O)[C@@H](NC(=O)[C@@H]1CCCN1C(=O)[C@H](CC(C)C)NC(=O)[C@H](Cc1ccccc1)NC(=O)[C@@H](NC(=O)[C@H](CC(=O)O)NC(=O)[C@H](CC(=O)O)NC(=O)c1ccc2c(c1)C(=O)OC21c2ccc(N(C)C)cc2Oc2cc(N(C)C)ccc21)[C@@H](C)O)C(C)C)C(=O)N[C@@H](CC(N)=O)C(=O)N[C@@H](CCC(N)=O)C(=O)N[C@@H](CO)C(=O)N[C@H](C(=O)N1CCC[C@H]1C(=O)N[C@@H](CCCCN)C(=O)N[C@@H](CC(=O)O)C(=O)O)C(C)C | 1-phosphatidylinositol 4,5-bisphosphate phosphodiesterase gamma-2, SH2 domain (PLCG2, Homo sapiens, UniProt P16885) | binding | – | 1.63 µM
CC(C)S[C@@H]1O[C@H](CO)[C@H](O)[C@H](O)[C@H]1O | lacI (Escherichia coli, UniProt P03023, N125C) | – | – | 1.4 ± 0.1 µM
Cn1c2cccc(=O)c-2nc2ccccc21 | Multidrug resistance operon repressor (mexR, Pseudomonas aeruginosa, UniProt P52003) | surface plasmon resonance | 25 °C | 5.17 µM
CC(C)C[C@H](NC(=O)[C@H](Cc1ccc(OP(=O)(O)O)cc1)NC(=O)[C@H](CCC(=O)O)NC(=O)[C@@H]1CCCN1C(=O)[C@H](CC(N)=O)NC(=O)CNC(=O)[C@@H](NC(=O)[C@H](C)NC(=O)[C@@H](NC(=O)[C@H](CO)NC(=O)[C@H](Cc1c[nH]cn1)NC(=O)c1ccc2c(c1)C(=O)OC21c2ccc(N(C)C)cc2Oc2cc(N(C)C)ccc21)[C@@H](C)O)C(C)C)C(=O)N[C@@H](CC(N)=O)C(=O)N[C@H](C(=O)N[C@H](C(=O)N[C@@H](CCC(N)=O)C(=O)N1CCC[C@H]1C(=O)N[C@H](C(=O)N[C@@H](CC(=O)O)C(=O)O)[C@@H](C)O)C(C)C)[C@@H](C)O | Growth factor receptor-bound protein 2, SH2 domain (GRB2, Homo sapiens, UniProt P62993) | binding | – | 0.422 µM

Excerpt of the above:
SMILES | target | assay | setting | Kd
CSCC[C@H](NC(=O)[C@H](Cc1ccc(OP(=O)(O)O)cc1)NC(=O)CNC(=O)CNC(=O)[C@H](CC(=O)O)NC(=O)[C@H](CO)NC(=O)[C@H](CCC(=O)O)NC(=O)CNC(=O)[C@@H](NC(=O)[C@H](CC(C)C)NC(=O)[C@H](CO)NC(=O)c1ccc2c(c1)C(=O)OC21c2ccc(N(C)C)cc2Oc2cc(N(C)C)ccc21)[C@@H](C)O)C(=O)N[C@@H](CC(=O)O)C(=O)N[C@@H](CCSC)C(=O)N[C@@H](CO)C(=O)N[C@@H](CCCCN)C(=O)N[C@@H](CC(=O)O)C(=O)N[C@@H](CCC(=O)O)C(=O)N[C@@H](CC(=O)O)C(=O)O | Tyrosine-protein kinase Blk, SH2 domain (BLK, Homo sapiens, UniProt P51451) | binding | – | 0.614 µM
